# Measurements of several laboratories.
# Lines come from different studies, so protocols differ. ± marks the error that the study gave.
SMILES,cell line,assay,conditions,how to read,quantity,result
CN(CCOCCOCCOCCNc1cccc2c1C(=O)N(C1CCC(=O)NC1=O)C2=O)CC[C@H](CSc1ccccc1)Nc1ccc(S(=O)(=O)NC(=O)c2ccc(N3CCN(CC4=C(c5ccc(Cl)cc5)CCC(C)(C)C4)CC3)cc2)cc1S(=O)(=O)C(F)(F)F (stereo partly shown),"MOLT-4 cells, human platelets",MTS,,reference: MOLT-4 over platelets,selectivity ratio,112 fold
CC(=O)c1c(C)c2cnc(Nc3ccc(N4CCNCC4)cn3)nc2n(C2CCCC2)c1=O,recombinant CHO cell line,PI flow cytometry,concentration not given,,G0/G1 arrest completeness,> 96%
COc1ncccc1CN(C(=O)OC(c1ccc([N+](=O)[O-])cc1)C(F)(F)F)[C@H]1C[C@@H]1c1ccccc1 (mixture of isomers),THP-1 cells,colony forming unit,,reference: EC50 wild type over NTR-expressing,selectivity ratio,1 ± 1
O=C(N1CCCC1)n1cc(-c2ccc(-c3ccccc3)cc2)nn1,mouse T-cells,"N-terminal labeled proteins, N-terminal enrichment proteomics, refers to: UQCRH","1 nM, 6 h",reference: DMSO,SILAC ratio,1.22 ± 0.17
CCCCc1ccc(C(=O)N[C@@H](CO)C(=O)N[C@H](C(=O)N2CCC[C@H]2C(=O)N[C@@H](CC(N)=O)C(=O)NCC(=O)N[C@@H](CC(C)C)C(=O)O)[C@@H](C)OP(=O)(O)O)cc1,"HeLa, QQ transfected",,"30 µM, 24 h",,apoptotic cells,55.5%
COc1ccc([C@@H]2CC(=O)c3c(O)cc(O[C@@H]4O[C@H](CO[C@@H]5O[C@@H](C)[C@H](O)[C@@H](O)[C@H]5O)[C@@H](O[C@H]5O[C@H](CO)[C@@H](O)[C@H](O)[C@H]5O)[C@H](O)[C@H]4O)cc3O2)cc1O,A549,"cell growth or viability, MTS","50 µg/mL, 72 h",,viability,52.1%
COc1cc(CNC(=O)C[C@H](C)CCC=C(C)C)ccc1OCc1cn(-c2ccccc2Cl)nn1,SNB-75 CNS cancer cells,SRB,"10 µM, 48 h",,growth percent,60%
COc1cc(C(=O)c2[nH]c(N)nc2-c2cccs2)cc(OC)c1OC,HeLa or A549 cells,γ-tubulin immunofluorescence,100 nM,,multipolar mitotic spindles,24%
CCC[C@@H]1O[C@@H](Oc2c(-c3ccc(O)cc3)oc3cc(O)cc(O)c3c2=O)[C@H](OC(C)=O)[C@H](OC(C)=O)[C@H]1NC(C)=O,MCF-10A,cell growth or viability,50 µM,,inhibition,70%
Cc1ccc(-n2nnnc2[S+]([O-])Cc2c(F)cccc2Cl)cc1Cl (stereo not shown),Ramos,LFQ mass spectrometry,"10 µM, 8 h",,overlap with Myc targets,13.3%
Cc1nc(C)c(C=[N+]([O-])C(C)(C)C)nc1C,primary rat midbrain neurons,"Western blot, refers to: SIRT1","30 µM, together with: 20 µM MPP+",,increase in protein level,47%
COc1cc(CNC(=O)C[C@H](C)CCC=C(C)C)ccc1OCc1cn(-c2ccccc2F)nn1,NCI-H522,SRB,"10 µM, 48 h",,growth percent,57.1%
CC(C)C[C@H](NC(=O)[C@H](CC(C)C)NC(=O)[C@@H](Cc1c[nH]c2ccccc12)NC(=O)[C@H](Cc1ccccc1)NC(=O)[C@@H](Cc1c[nH]c2ccccc12)NC(=O)[C@H](CCC(N)=O)NC(=O)[C@H](CCC(N)=O)NC(=O)[C@@H]1CCCN1C(=O)[C@H](CCCCN)NC(=O)[C@@H]1CCCN1C(=O)[C@H](N)CCCNC(=N)N)C(N)=O,HEK293 expressing NK1R,"cytosolic ERK, antagonist, FRET biosensor","concentration not given, 30 min, together with: substance P",,ERK activity,inhibited
CC(=O)OC[C@H]1O[C@@H](Sc2sc(C(=O)c3ccc(C)cc3)c(N)c2-c2nc3ccccc3s2)[C@H](OC(C)=O)[C@@H](OC(C)=O)[C@@H]1OC(C)=O,OVCAR-4,SRB,"10 µM, 48 h",reference: untreated,growth,-13.9%
COc1cc(CNC(=O)C[C@H](C)CCC=C(C)C)ccc1OCc1cn(-c2ccc(Cl)cc2Cl)nn1,SNB-75 CNS cancer cells,SRB,"10 µM, 48 h",,growth percent,7.99%
O=Cc1c(O)ccc2ccccc12,HUVEC,"RNA sequencing, refers to: ORC1","75 µM, 24 h",reference: DMSO,log2 fold change,-3.43
COc1ccc(NC(=O)N/N=C2\CC3(CCN(C)CC3)Oc3ccccc32)cc1,HCT-116,annexin V-FITC/PI,"concentration not given, 24 h, Early apoptosis",,apoptotic cells,31%
COc1cc(CNC(=O)C[C@H](C)CCC=C(C)C)ccc1OCc1cn(-c2ccc(Br)cc2)nn1,SK-MEL-28 melanoma cells,SRB,"10 µM, 48 h",,growth percent,96.5%
C=C(CC)C(=O)c1ccc(OCC(=O)NCCNC(=O)COc2ccc(C(=O)C(=C)CC)c(Cl)c2Cl)c(Cl)c1Cl,SGC-7901,"cell growth, CCK-8",72 h,,IC10,~1.2 µM
COc1cc(CNC(=O)C[C@H](C)CCC=C(C)C)ccc1OCc1cn(-c2ccc(F)cc2)nn1,SK-MEL-28 melanoma cells,SRB,"10 µM, 48 h",,growth percent,89.6%
Cc1c(C)c(C)[c-](C)c1C.[C-]#[O+].[C-]#[O+].[C-]#[O+].[Cl-].[Cl-].[Cl-].[Ir+3].[Re+].c1cnc(-c2ncccn2)nc1,MDA-MB-468,JC-1 flow cytometry,25 µM,,cells with depolarised mitochondria,30.6%
NS(=O)(=O)c1ccc(-n2cc(Cn3c(=O)c(Cc4ccccc4)nc4ccccc43)nn2)cc1,HCT-116,"qRT-PCR, refers to: p53","concentration not given, 72 h",reference: untreated,mRNA level,4.53 ± 0.063 fold
CCNc1ccc(-c2nc3cc(OCCF)ccc3n3cccc23)cc1,HEK293 DR-GFP reporter,homologous recombination,48 h,,concentration for near-complete inhibition,30 to 40 µM
COc1cc(CNC(=O)C[C@H](C)CCC=C(C)C)ccc1O,SK-MEL-28 melanoma cells,SRB,"10 µM, 48 h",,growth percent,106%
Cc1cc([C@H](C(=O)N2C[C@H](O)C[C@H]2C(=O)N[C@@H](CC(=O)N2CCC(N3CCC(C#Cc4ccc(C(=O)N[C@H]5C(C)(C)[C@H](Oc6ccc(C#N)c(Cl)c6)C5(C)C)cc4)CC3)CC2)c2ccc(-c3scnc3C)cc2)C(C)C)on1,HCC1428,flow cytometry,72 h,,G2/M arrest concentration,0.5 µM

# For quick reference, copied from above:
SMILES,cell line,assay,conditions,how to read,quantity,result
CCCCc1ccc(C(=O)N[C@@H](CO)C(=O)N[C@H](C(=O)N2CCC[C@H]2C(=O)N[C@@H](CC(N)=O)C(=O)NCC(=O)N[C@@H](CC(C)C)C(=O)O)[C@@H](C)OP(=O)(O)O)cc1,"HeLa, QQ transfected",,"30 µM, 24 h",,apoptotic cells,55.5%
NS(=O)(=O)c1ccc(-n2cc(Cn3c(=O)c(Cc4ccccc4)nc4ccccc43)nn2)cc1,HCT-116,"qRT-PCR, refers to: p53","concentration not given, 72 h",reference: untreated,mRNA level,4.53 ± 0.063 fold
